Assay results collected from several papers.
Every numbered part comes from another study and shows a few of its results, in no order. Several values in a cell are separate wells, animals, samples, runs or records.
Sequence of UniProt P10721 (whole entry, unmodified, looked up): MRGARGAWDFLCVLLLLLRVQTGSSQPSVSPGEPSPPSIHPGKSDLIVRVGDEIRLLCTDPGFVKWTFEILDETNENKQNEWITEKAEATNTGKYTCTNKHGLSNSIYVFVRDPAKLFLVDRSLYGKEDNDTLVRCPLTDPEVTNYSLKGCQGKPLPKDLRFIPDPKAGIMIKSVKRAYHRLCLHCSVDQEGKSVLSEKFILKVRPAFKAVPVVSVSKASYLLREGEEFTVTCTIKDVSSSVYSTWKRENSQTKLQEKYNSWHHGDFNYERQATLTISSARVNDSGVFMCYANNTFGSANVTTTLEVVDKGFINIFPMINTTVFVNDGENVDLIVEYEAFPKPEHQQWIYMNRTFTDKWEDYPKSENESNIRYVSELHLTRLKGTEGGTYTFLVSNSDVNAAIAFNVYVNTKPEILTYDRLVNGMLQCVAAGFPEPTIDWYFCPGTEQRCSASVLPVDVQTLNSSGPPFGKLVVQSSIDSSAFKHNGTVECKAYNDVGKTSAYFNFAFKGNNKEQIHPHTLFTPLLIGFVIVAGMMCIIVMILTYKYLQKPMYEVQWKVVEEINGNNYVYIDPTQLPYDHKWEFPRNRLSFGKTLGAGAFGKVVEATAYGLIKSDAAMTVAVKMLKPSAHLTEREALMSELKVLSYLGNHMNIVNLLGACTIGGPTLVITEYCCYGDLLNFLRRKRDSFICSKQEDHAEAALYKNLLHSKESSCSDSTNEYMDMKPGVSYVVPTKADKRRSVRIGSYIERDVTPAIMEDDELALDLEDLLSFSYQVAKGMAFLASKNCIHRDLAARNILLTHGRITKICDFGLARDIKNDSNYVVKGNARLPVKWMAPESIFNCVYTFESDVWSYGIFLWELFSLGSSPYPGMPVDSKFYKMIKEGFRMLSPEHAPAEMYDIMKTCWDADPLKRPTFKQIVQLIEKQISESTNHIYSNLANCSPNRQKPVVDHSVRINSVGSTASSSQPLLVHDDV
Sequence of UniProt Q9UEE5 (whole entry, looked up): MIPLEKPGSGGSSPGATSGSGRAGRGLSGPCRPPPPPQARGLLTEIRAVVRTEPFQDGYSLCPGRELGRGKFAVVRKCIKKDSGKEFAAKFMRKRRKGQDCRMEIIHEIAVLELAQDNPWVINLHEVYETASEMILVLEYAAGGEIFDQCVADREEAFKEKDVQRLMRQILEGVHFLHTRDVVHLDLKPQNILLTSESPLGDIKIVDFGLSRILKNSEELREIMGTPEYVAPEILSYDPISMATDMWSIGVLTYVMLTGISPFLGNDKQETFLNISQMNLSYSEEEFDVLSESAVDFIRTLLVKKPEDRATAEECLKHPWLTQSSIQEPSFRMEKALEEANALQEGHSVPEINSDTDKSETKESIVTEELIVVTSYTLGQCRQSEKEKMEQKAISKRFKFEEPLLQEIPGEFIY
Sequence of UniProt Q9Y4K4 (whole entry, looked up): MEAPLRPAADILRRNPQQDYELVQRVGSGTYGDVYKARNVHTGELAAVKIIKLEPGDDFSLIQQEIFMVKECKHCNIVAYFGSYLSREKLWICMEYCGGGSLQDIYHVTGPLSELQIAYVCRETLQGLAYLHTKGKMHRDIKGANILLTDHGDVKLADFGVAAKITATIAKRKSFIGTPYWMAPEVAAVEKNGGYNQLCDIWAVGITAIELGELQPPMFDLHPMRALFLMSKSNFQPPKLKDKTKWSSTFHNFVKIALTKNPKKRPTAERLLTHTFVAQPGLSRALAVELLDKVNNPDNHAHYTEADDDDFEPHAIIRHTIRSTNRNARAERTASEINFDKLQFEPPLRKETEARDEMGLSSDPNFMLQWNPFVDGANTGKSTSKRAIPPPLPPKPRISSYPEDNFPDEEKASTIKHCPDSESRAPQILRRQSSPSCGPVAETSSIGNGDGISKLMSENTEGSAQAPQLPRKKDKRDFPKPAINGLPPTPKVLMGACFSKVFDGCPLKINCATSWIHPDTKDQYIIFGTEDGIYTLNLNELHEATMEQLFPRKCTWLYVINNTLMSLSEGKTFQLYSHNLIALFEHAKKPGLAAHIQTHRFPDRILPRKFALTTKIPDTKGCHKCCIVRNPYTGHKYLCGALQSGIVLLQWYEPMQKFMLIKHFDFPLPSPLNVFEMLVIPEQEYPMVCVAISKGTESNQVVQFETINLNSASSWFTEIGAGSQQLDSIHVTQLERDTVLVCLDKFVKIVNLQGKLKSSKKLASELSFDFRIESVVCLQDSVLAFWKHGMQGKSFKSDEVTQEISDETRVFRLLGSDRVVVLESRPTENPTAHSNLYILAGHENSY
Sequence of UniProt P09769 (whole entry, looked up): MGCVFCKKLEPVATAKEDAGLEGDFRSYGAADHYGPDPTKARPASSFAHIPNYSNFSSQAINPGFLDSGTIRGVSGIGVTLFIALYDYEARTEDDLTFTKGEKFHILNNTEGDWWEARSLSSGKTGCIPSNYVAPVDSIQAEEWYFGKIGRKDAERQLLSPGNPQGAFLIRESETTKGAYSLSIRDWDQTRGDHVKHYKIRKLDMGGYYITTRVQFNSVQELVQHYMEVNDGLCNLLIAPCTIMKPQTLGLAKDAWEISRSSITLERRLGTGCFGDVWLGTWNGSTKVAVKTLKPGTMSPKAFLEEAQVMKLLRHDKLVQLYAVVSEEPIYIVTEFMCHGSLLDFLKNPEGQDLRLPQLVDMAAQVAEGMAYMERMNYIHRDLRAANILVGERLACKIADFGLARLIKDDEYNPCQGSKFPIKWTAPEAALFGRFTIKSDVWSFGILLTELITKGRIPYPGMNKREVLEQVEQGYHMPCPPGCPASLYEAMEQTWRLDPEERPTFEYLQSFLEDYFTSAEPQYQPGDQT
Sequence of UniProt P29320 (whole entry, looked up): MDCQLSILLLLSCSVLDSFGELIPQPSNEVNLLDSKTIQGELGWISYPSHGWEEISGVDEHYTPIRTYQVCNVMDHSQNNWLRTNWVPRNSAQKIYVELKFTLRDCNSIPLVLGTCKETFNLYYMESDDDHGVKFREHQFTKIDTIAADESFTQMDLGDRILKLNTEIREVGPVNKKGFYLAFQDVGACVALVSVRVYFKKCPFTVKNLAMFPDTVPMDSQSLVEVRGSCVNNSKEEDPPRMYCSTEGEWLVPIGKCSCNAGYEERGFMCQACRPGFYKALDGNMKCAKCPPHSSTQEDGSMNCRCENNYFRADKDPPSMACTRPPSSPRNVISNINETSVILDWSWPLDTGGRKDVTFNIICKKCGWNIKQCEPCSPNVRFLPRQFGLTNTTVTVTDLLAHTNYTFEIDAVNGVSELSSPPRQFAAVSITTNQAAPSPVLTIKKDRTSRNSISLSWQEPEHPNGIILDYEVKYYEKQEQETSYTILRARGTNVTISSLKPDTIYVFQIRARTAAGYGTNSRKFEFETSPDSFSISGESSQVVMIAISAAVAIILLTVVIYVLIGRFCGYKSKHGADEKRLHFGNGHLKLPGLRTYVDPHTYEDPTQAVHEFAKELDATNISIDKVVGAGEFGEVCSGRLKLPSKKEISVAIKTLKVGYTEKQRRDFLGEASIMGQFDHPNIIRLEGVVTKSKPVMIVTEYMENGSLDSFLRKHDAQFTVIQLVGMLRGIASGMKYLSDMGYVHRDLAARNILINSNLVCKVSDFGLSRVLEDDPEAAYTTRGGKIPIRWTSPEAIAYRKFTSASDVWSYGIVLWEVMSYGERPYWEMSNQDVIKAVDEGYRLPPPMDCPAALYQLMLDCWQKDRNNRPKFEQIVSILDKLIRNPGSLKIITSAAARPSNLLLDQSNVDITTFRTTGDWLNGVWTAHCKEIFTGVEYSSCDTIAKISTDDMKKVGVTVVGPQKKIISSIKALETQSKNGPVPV

Series 1 — read-out: cell-free assay; technique: competition with immobilised ligand; tested at: 1 µM
Compound: COc1ccc2c(c1)O[C@H](c1ccc(OC)c(OC)c1)C[C@@H]2NC(=O)C1(c2ccc3c(c2)OC(F)(F)O3)CC1
| target | remaining binding [%] |
| --- | --- |
| PRKACB (Homo sapiens, UniProt P22694) | 99 |
| Mast/stem cell growth factor receptor Kit, autoinhibited (KIT, Homo sapiens, UniProt P10721) | 99 |
| FGR (Homo sapiens, UniProt P09769) | 87 |
| KIT (Homo sapiens, UniProt P10721, L576P) | 100 |
| MARK3 (Homo sapiens, UniProt P27448) | 95 |
| STK17A (Homo sapiens, UniProt Q9UEE5) | 100 |
| MAP4K5 (Homo sapiens, UniProt Q9Y4K4) | 100 |
| EGFR (Homo sapiens, UniProt P00533) | 92 |
| INSRR (Homo sapiens, UniProt P14616) | 100 |
| EPHA3 (Homo sapiens, UniProt P29320) | 100 |
| TNIK (Homo sapiens, UniProt Q9UKE5) | 100 |

Series 2 — cell line: HaCaT; tested at: 100 µM; time: 18 h
| SMILES | viability [%] |
| --- | --- |
| COc1ccnc(C[S+]([O-])c2nc3cc(-n4cccc4)ccc3[nH]2)c1C (stereo not drawn) | 67.1 |
| CN1C(=O)OC(C)(C)C1=O | 108 |
| CO[C@H]1O[C@@H]2O[C@@]3(C)CC[C@H]4[C@H](C)CC[C@@H]([C@H]1C)[C@@]24OO3 | 86 |
| COc1ccc(OC)c(C(O)CNC(=O)CN)c1 (stereo not drawn) | 99.1 |
| CC(C)=CCC[C@](C)(O[C@@H]1O[C@H](CO[C@@H]2O[C@@H](CO)[C@H](O)[C@H]2O)[C@@H](O)[C@H](O)[C@H]1O)[C@H]1CC[C@]2(C)[C@@H]1[C@H](O)C[C@@H]1[C@@]3(C)CC[C@H](O[C@@H]4O[C@H](CO)[C@@H](O)[C@H](O)[C@H]4O[C@@H]4O[C@H](CO)[C@@H](O)[C@H](O)[C@H]4O)C(C)(C)[C@@H]3CC[C@]12C | 108 |

Series 3 — host: human; sample: microsomes or S9; tested at: 2 µM; time: 0.5 h
| SMILES | remaining compound |
| --- | --- |
| Nc1cc(O)nc2nnc(SCc3nnnn3-c3ccc(Cl)c(Cl)c3)n12 | 84.7% |
| CCn1ccc(C(=O)N2CCCN(S(C)(=O)=O)c3ccccc32)n1 | 7.95% |
| O=C(Cc1cc(Br)ccc1F)OCCNC(=O)c1cccnc1 | 2.29% |
| O=C(c1cccnc1Cl)N1CCN(c2nc3nccc(-c4cccs4)n3n2)CC1 | 94.8% |
| Cc1ccc(C2c3cccn3-c3sc4c(c3CN2C(=O)Nc2ccc(F)cc2F)CCCC4)cc1 (stereo not drawn) | 57.2% |
| COc1cc(-c2nc3c(s2)CNCC3)cc(OC)c1OC | > 99.9% |

Series 4 — cell line: mouse MPNST tumor cells; technique: high-content immunofluorescence imaging; measured: nuclear SOX9; tested at: 10 µM; time: 12 h; setting: mean of 2 replicates; baseline: DMSO control; reading: higher = more nuclear SOX9
| SMILES | nuclear SOX9 intensity |
| --- | --- |
| COc1ccc(Cn2ccc3ccc(C(=O)NO)cc32)cc1 | 103 % of DMSO |
| O=C(Nc1ccccc1C(=O)Nc1ccc(CCO)cc1)c1ccc([N+](=O)[O-])cc1 | 107 % of DMSO |
| CC(=O)NC[C@H]1CN(c2ccc(N3CCOCC3)c(F)c2)C(=O)O1 | 93.6 % of DMSO and 114 % of DMSO |
| CC1(C)C(=O)N(CCN2CCC(C(=O)c3ccc(F)cc3)CC2)c2ccccc21 | 102 % of DMSO |
| CN(C)c1ccc(C(=O)NCCCCCCC(=O)NO)cc1 | 132 % of DMSO |

Repeated from above (series 1):
| target | remaining binding [%] |
| --- | --- |
| EPHA3 (Homo sapiens, UniProt P29320) | 100 |
| MAP4K5 (Homo sapiens, UniProt Q9Y4K4) | 100 |
